Results gathered from unrelated publications.
Values joined by “and” are separate records of one study, mostly repeats; a detail may differ. Numbers after ± are the reported error. Values after ≈ are worked out from the molar mass of the structure shown.

Nc1ccc(Cc2ccccc2)cc1
average chemical shift perturbation (HBV core protein Cp149 dimer; solution NMR; 4 molar equivalents, pH 7.5, 295 K, average over eight residues; reference: apo Cp149 dimer): 0.071 ppm

CCCCC/C=C/C(=O)CCc1ccc(O)c(OC)c1
IC50 (mAb 5-D8; antibody binding, indirect competitive ELISA; together with: coating antigen hapten 5-OVA): 0.311 µg/mL (≈ 1.12 µM)

Cn1cnnc1Sc1c2c(c(C#N)c3nc4ccccc4n13)CCCC2
inhibition (hydrogen peroxide; Amplex Red; 100 µM): no inhibition

Cc1sc2ncn(CC(=O)N3CCCC3)c(=O)c2c1-c1cccc(Br)c1
unitary current amplitude 3 (NMDA receptor, mouse; single-channel current, outside-out patch; cortical neurons; concentration not given, holding -80 mV, together with: Ca2+ 1.25 mM): -2.16 ± 0.57 pA

[64Cu+2].c1cnc(CNCc2ccc(CN3CCCN4CCNCCCN(CC4)CC3)cc2)nc1
uptake increase by blocking (CXCR4; NOD/SCID mice, U87 xenograft, kidney; dose not given, 90 min post-injection, together with: AMD3465 25 mg/kg; reference: unblocked): 42%

Cc1ccc2c(c1)nc(/C=C/c1cccc3cccnc13)n2-c1cccc(OCCCN2CCN(C)CC2)c1
potency loss (PDE10A Q726A mutant; enzyme activity, inhibitor; reference: mutant over wild type): 30 fold

CN1CCCNC(=O)CCC(=O)NCCCN(C)CCCNc2cccc3c2C(=O)c2cccc(c2C3=O)NCCC1
melting temperature increase (telomeric G-quadruplex DNA; circular dichroism; 4.5 µM, 100 mM K+): 2.8 °C

CC[C@H](C)[C@H](NC(=O)[C@H](CC(C)C)NC(=O)[C@H](CCCCN)NC(=O)[C@@H](N)CCCCN)C(=O)N[C@H](C(=O)N[C@@H](Cc1ccccc1)C(=O)N[C@H](C(=O)N1CCC[C@H]1C(=O)N[C@@H](CCCCN)C(=O)N[C@@H](CCCCN)C(=O)N[C@H](C(=O)N[C@@H](CCCNC(=N)N)C(=O)N[C@@H](CCC(=O)O)C(=O)N[C@@H](CCCCN)C(=O)N[C@@H](CCCCN)C(=O)N[C@@H](CCCCN)C(=O)N[C@@H](CCC(=O)O)C(=O)N[C@@H](CS)C(=O)N[C@@H](CC(C)C)C(=O)N[C@H](C(=O)O)C(C)C)[C@@H](C)O)[C@@H](C)CC)[C@@H](C)O
affinity decrease (voltage-gated sodium channel, mouse; resurgent current, blocker; mouse CA3 neurons; -10 mV, kinetic model; reference: wild-type peptide): 10 fold

COc1cc(/C=C/C(=O)CC(C)=O)ccc1O
increase (glutathione reductase; enzyme activity; MCF7; 25 µM, 48 h): 85%

CS(=O)(=O)CCC1NC(=O)C(Cc2ccco2)NC(=O)C(CC2CC2)NC(=O)C=CC(=O)NC(C(N)=O)CCNC1=O (stereo not shown)
enrichment factor (AMPK; binding, DNA-templated library selection; one selection round): 1

O=C(O)c1ccccc1-c1c2ccc(=O)cc-2oc2cc(O)ccc12
PCNA ubiquitination (PCNA ubiquitination cascade (human); Alpha; concentration not given): inactive

NC(=O)C1CCCCNC(=O)C(CCCNC(=O)c2cnccn2)NC(=O)C(Cc2ccco2)NC(=O)C(CC2CC2)NC(=O)C=CC(=O)N1 (stereo not shown)
enrichment factor (AMPK; binding, DNA-templated library selection; one selection round): 1.1

C[C@H](NC(=O)CNC(=O)[C@H](Cc1ccc(O)cc1)NC(=O)[C@@H](N)CSSC[C@H](N)C(=O)N[C@@H](Cc1ccc(O)cc1)C(=O)NCC(=O)N[C@@H](C)C(=O)N[C@@H](CCCCN)C(N)=O)C(=O)N[C@@H](CCCCN)C(N)=O
inhibition (calpain, rabbit; enzyme activity; rabbit renal proximal tubule cells; 100 µM, 30 min): no inhibition

CC(C)(C)OCc1ccc(CO)cc1
average chemical shift perturbation (HBV core protein Cp149 dimer; solution NMR; 4 molar equivalents, pH 7.5, 295 K, average over eight residues; reference: apo Cp149 dimer): 0.048 ppm

O=C(Nc1ccc(S(=O)(=O)Nc2nccs2)cc1)c1cc(-c2ccco2)nc2ccccc12
inhibition (ChREBP human; reporter gene, inhibitor, LPK promoter luciferase; HepG2; 3 µM, together with: high glucose): ~30%

C[C@H](CN(C)Cc1ccccc1)NC(=O)c1ccc(-c2noc(C(F)(F)[18F])n2)cc1
reduction of brain uptake (class IIa HDACs; microPET self-blocking; mouse, brain; 1.0 mg/kg; reference: baseline): ~47% and 47%

O=c1c2ccccc2on1-c1ccccc1
inhibition (11 HDAC isoforms; up to 10 µM): no inhibition

NC(=O)C1CCNC(=O)C(Cc2ccc([N+](=O)[O-])cc2)NC(=O)C(Cc2ccco2)NC(=O)C(CC2CC2)NC(=O)C=CC(=O)N1 (stereo not shown)
enrichment factor (AMPK; binding, DNA-templated library selection; one selection round): 1.4

COc1cc(O)c(C(=O)/C=C/c2cccc3ccccc23)c(OC)c1
GI50 of mitoxantrone (ABCG2; cell growth, chemosensitizer, MTT; HEK293 transfected with ABCG2; 1 µM, 72 h): 17.5 ± 2.2 nM

O=C(Cc1ccc2ccccc2c1)N[C@H](Cc1ccccc1)C(=O)N[C@H](Cc1ccccc1)C(=O)N[C@H](Cc1ccc(O)cc1)C(=O)N[C@H](Cc1ccc(OP(=O)(O)O)cc1)C(=O)O
time to near-complete dephosphorylation (alkaline phosphatase; substrate; 0.5 wt %, together with: ALP 0.02 U/mL): ≤ 24 h

CCOC(=O)CCc1ccc(N)cc1
average chemical shift perturbation (HBV core protein Cp149 dimer; solution NMR; 4 molar equivalents, pH 7.5, 295 K, average over eight residues; reference: apo Cp149 dimer): < 0.029 ppm

OB(O)c1sccc1/C=N/OCc1ccccc1
inhibition (human pancreatic trypsin; enzyme activity, inhibitor; 100 µM): inactive

COc1cc(CCC(C)=O)ccc1O
IC50 (mAb 3-LD3; antibody binding, indirect competitive ELISA; together with: coating antigen hapten 2-OVA): > 4 µg/mL

CC(=O)c1cnc(N)nc1N1CC[C@H]1c1nn2ccc(Cl)c2c(=O)n1-c1ccccc1
binding (PI3K beta; KiNativ; monkey white blood cell lysate; 1 µM): 70%

COc1cc(/C=C/C(=O)c2ccc3ccccc3c2)ccc1OCc1ccccc1
GI50 of mitoxantrone (ABCG2; cell growth, chemosensitizer, MTT; HEK293 transfected with ABCG2; 1 µM, 72 h): 16.4 ± 3.1 nM

A few entries again:
Nc1ccc(Cc2ccccc2)cc1
average chemical shift perturbation (HBV core protein Cp149 dimer; solution NMR; 4 molar equivalents, pH 7.5, 295 K, average over eight residues; reference: apo Cp149 dimer): 0.071 ppm

COc1cc(CCC(C)=O)ccc1O
IC50 (mAb 3-LD3; antibody binding, indirect competitive ELISA; together with: coating antigen hapten 2-OVA): > 4 µg/mL

CCCCC/C=C/C(=O)CCc1ccc(O)c(OC)c1
IC50 (mAb 5-D8; antibody binding, indirect competitive ELISA; together with: coating antigen hapten 5-OVA): 0.311 µg/mL (≈ 1.12 µM)

Cc1ccc2c(c1)nc(/C=C/c1cccc3cccnc13)n2-c1cccc(OCCCN2CCN(C)CC2)c1
potency loss (PDE10A Q726A mutant; enzyme activity, inhibitor; reference: mutant over wild type): 30 fold
